{"data": "Published values gathered from unrelated publications", "UCHL1": "Ubiquitin carboxyl-terminal hydrolase isozyme L1 (UCHL1, Homo sapiens, UniProt P09936)", "note": "± gives the spread as reported.", "chain of UniProt P09936 (whole entry, looked up)": "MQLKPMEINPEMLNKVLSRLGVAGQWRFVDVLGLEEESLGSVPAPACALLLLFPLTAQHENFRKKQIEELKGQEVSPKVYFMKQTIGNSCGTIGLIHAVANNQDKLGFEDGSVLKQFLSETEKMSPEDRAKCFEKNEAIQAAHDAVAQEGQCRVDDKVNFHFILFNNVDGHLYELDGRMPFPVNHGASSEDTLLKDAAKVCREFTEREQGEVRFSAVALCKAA", "chain of UniProt Q07794 (whole entry, looked up)": "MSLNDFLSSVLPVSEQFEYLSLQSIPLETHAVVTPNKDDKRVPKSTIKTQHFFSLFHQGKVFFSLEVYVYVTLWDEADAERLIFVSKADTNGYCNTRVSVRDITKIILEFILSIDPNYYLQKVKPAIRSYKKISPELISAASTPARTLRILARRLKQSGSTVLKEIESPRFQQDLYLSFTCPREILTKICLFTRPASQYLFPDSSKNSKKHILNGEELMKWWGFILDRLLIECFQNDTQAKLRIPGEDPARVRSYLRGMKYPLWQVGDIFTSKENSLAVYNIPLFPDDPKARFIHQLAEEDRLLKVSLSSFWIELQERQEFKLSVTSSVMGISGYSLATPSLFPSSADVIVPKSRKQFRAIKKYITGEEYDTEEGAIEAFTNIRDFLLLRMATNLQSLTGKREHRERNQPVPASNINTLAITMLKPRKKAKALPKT"}
{"SMILES": "CCCC1CCC(c2ccc(-c3ccc(F)c(F)c3)cc2)CC1 (stereo not drawn)", "test system": "human mother-newborn pairs, female fetuses, cord serum", "endpoint": "mean serum concentration", "value": "0.59 ng/mL"}
{"SMILES": "Cn1cc(-c2cn3nccc3c(-c3cnn([C@]4(CC#N)C[C@@H](C#N)C4)c3)n2)cn1", "test system": "healthy humans fasted, plasma", "conditions": "400 mg single dose, geometric mean", "endpoint": "mean residence time", "value": "10.6 h"}
{"SMILES": "CCCCc1ccc(-c2ccc(C#N)cc2)cc1", "test system": "human mother-newborn pairs, female fetuses, cord serum", "endpoint": "mean serum concentration", "value": "0.25 ng/mL"}
{"SMILES": "C[C@H](CCC(=O)NCC(=O)O)[C@H]1CC[C@H]2[C@@H]3CC[C@@H]4C[C@H](OS(=O)(=O)O)CC[C@]4(C)[C@H]3C[C@H](O)[C@]12C", "test system": "human, plasma", "conditions": "baseline", "endpoint": "mean daily plasma concentration", "value": "0.253 ± 0.07 µM"}
{"SMILES": "CCCC1CCC(c2ccc(OCC)c(F)c2F)CC1 (stereo not drawn)", "test system": "human mother-newborn pairs, cord serum", "endpoint": "mean serum concentration", "value": "1.74 ng/mL"}
{"SMILES": "CCNCCCNC/C=C\\CNCCCNCC", "test": "LC-MS/MS", "test system": "human cancer patients, plasma", "conditions": "intravenous infusion 60 min, 50 mg, median, cycle 1", "endpoint": "mean residence time", "value": "3.59 h"}
{"SMILES": "O=C(O)CCCCCCCCCCCCCCC(=O)O", "test system": "human, plasma", "conditions": "oral, dose not given, control", "endpoint": "mean daily plasma concentration", "value": "0.161 ± 0.021 µM"}
{"SMILES": "O=C([O-])CN(CCN(CC(=O)[O-])Cc1cc(CCC(=O)NCCCCCC(=O)NCCCC[C@H](NC(=O)N[C@@H](CCC(=O)O)C(=O)O)C(=O)O)ccc1[O-])Cc1cc(CCC(=O)O)ccc1[O-].[68Ga+3].[OH3+]", "test": "PET/CT", "test system": "human, metastatic prostate cancer, matched lesions", "endpoint": "mean SUVmax", "value": "17.9 ± 12.1"}
{"SMILES": "C#CCOc1cc(C2CC(=O)Nc3ccsc32)ccc1OC (stereo not drawn)", "tested on": "UCHL1", "test": "covalent, intact protein LC-MS", "conditions": "12.5 µM", "endpoint": "labelling", "value": "17.4%"}
{"SMILES": "CCc1ccc(-c2ccc(-c3cc(F)c(F)c(F)c3)c(F)c2)cc1", "test system": "human mother-newborn pairs, maternal serum", "endpoint": "mean serum concentration", "value": "0.48 ng/mL"}
{"SMILES": "O=S1(=O)C=C(Sc2nnc[nH]2)c2ccccc21", "tested on": "Histone acetyltransferase RTT109, with Vps75 (Saccharomyces cerevisiae, UniProt Q07794)", "test": "enzyme activity, inhibitor, HTS, CPM-based, dose response", "endpoint": "IC50", "value": "> 125 µM"}
{"SMILES": "N#CC(=Cc1csc(C2CC2)n1)C(=O)Nc1ccccc1C(=O)O", "tested on": "UCHL1", "test": "covalent, intact protein LC-MS", "conditions": "12.5 µM", "endpoint": "labelling", "value": "33.1%"}
{"SMILES": "C[C@@H](O)CCOC(=O)C[C@@H](C)O", "test system": "human", "conditions": "oral drink, dose not given, 180 min post dose, mean", "endpoint": "mean arterial pressure", "value": "83 mmHg"}
{"SMILES": "O=C(O)[C@H]1O[C@@H](Oc2ccc(/C=C/c3cc(O)cc(O)c3)cc2)[C@H](O)[C@@H](O)[C@@H]1O", "test system": "human, plasma", "endpoint": "mean concentration", "value": "448 nM"}
{"SMILES": "C[C@H](CCC(=O)NCCS(=O)(=O)O)[C@H]1CC[C@H]2[C@@H]3[C@H](O)C[C@@H]4C[C@H](O)CC[C@]4(C)[C@H]3C[C@H](O)[C@]12C", "test system": "human, plasma", "conditions": "control", "endpoint": "mean daily plasma concentration", "value": "0.0167 ± 0.0015 µM"}
{"SMILES": "NC[C@@]1(CC(=O)O)[C@@H]2CC[C@H]3C[C@@H]2[C@@H]1C3", "test system": "human, severe renal impairment, plasma", "conditions": "oral, 20 mg single dose, geometric mean", "endpoint": "mean residence time", "value": "16.5 h"}
{"SMILES": "C[C@H](CCC(=O)O)[C@H]1CC[C@H]2[C@@H]3CC[C@@H]4C[C@H](OS(=O)(=O)O)CC[C@]4(C)[C@H]3CC[C@]12C", "test system": "human, plasma", "conditions": "baseline", "endpoint": "mean daily plasma concentration", "value": "0.301 ± 0.021 µM"}
{"SMILES": "CCCOc1ccc(-c2ccc(C#N)cc2)cc1", "test system": "human mother-newborn pairs, female, maternal serum", "endpoint": "mean serum concentration", "value": "0.73 ng/mL"}
{"SMILES": "C[C@H](CCC(=O)NCCS(=O)(=O)O)[C@H]1CC[C@H]2[C@@H]3CC[C@@H]4C[C@H](OS(=O)(=O)O)CC[C@]4(C)[C@H]3CC[C@]12C", "test system": "human, plasma", "conditions": "control", "endpoint": "mean daily plasma concentration", "value": "0.121 ± 0.031 µM"}
{"SMILES": "N#Cc1ccc2c(c1)[C@H]1CCCN(C(=O)c3ccc4[nH]cnc4c3)[C@H]1C2", "test system": "human", "conditions": "360 mg, day 7", "endpoint": "mean ACTH level", "value": "6.9 pmol/L"}
{"SMILES": "C[C@H](CCC(=O)NCC(=O)O)[C@H]1CC[C@H]2[C@@H]3CC[C@@H]4C[C@H](OS(=O)(=O)O)CC[C@]4(C)[C@H]3CC[C@]12C", "test system": "human, plasma", "conditions": "control", "endpoint": "mean daily plasma concentration", "value": "0.832 ± 0.171 µM"}
{"SMILES": "CCCC1CCC(c2ccc(-c3ccc(CC)cc3)cc2)CC1 (stereo not drawn)", "test system": "human mother-newborn pairs, cord serum", "endpoint": "mean serum concentration", "value": "0.66 ng/mL"}
{"SMILES": "Cc1ccc(O)c(-n2nc3ccccc3n2)c1", "test": "exposure assessment", "test system": "human, age 6-11 years", "conditions": "sunscreen", "endpoint": "mean daily dermal uptake", "value": "912 ng/kg body weight/day"}
{"SMILES": "Cn1cnc2c(F)c(Nc3ccc(Br)cc3Cl)c(C(=O)NOCCO)cc21", "test": "population PK model", "test system": "human, plasma", "conditions": "oral, transit compartment absorption model, fed", "endpoint": "mean transit time", "value": "2.41 h"}
{"SMILES": "C[C@H](CCC(=O)NCCS(=O)(=O)O)[C@H]1CC[C@H]2[C@@H]3CC[C@@H]4C[C@H](O)CC[C@]4(C)[C@H]3C[C@H](O)[C@]12C", "test system": "human, plasma", "conditions": "control", "endpoint": "mean daily plasma concentration", "value": "0.0533 ± 0.0092 µM"}
{"SMILES": "O=C(O)[C@H]1O[C@@H](Oc2cc(O)cc(/C=C/c3ccc(O)cc3)c2)[C@H](O)[C@@H](O)[C@@H]1O", "test system": "human, plasma", "endpoint": "mean concentration", "value": "2600 nM"}
{"SMILES": "CCCCOc1ccc([C@H]2CC[C@H](CCC)CC2)c(F)c1F", "test system": "human mother-newborn pairs, maternal serum", "endpoint": "mean serum concentration", "value": "7.63 ng/mL"}
{"SMILES": "CC(C)n1c(/C=C/C(O)CC(O)CC(=O)O)c(-c2ccc(F)cc2)c2ccccc21 (stereo not drawn)", "test system": "human", "conditions": "oral, 20 mg, alone, control phase", "endpoint": "mean residence time", "value": "3.43 ± 1.72 h"}
{"SMILES": "COc1cc(C(=O)O)ccc1NC(=O)[C@@H]1N[C@@H](CC(C)(C)C)[C@](C#N)(c2ccc(Cl)cc2F)[C@H]1c1cccc(Cl)c1F", "test system": "human, plasma", "conditions": "400 mg, steady state, with: venetoclax 400 mg", "endpoint": "mean Ctrough", "value": "3890 ng/mL"}
{"SMILES": "C=CC(=O)N(C)CCOc1c(N)ncnc1-c1cc(F)cc(NC(=O)c2ccc(C3CC3)cc2F)c1C", "test system": "human, whole blood", "conditions": "oral, 1.5 mg, single ascending dose", "endpoint": "mean residence time", "value": "0.5 h"}
{"SMILES": "Cc1ccc(Sc2ccccc2N2CCNCC2)c(C)c1", "test system": "healthy male humans fed, plasma", "conditions": "oral, 10 mg single, high-fat breakfast", "endpoint": "mean Cmax", "value": "4.1 ng/mL"}
{"SMILES": "C[C@H](CCC(=O)NCC(=O)O)[C@H]1CC[C@H]2[C@@H]3[C@H](O)C[C@@H]4C[C@H](O[C@@H]5O[C@H](C(=O)O)[C@@H](O)[C@H](O)[C@H]5O)CC[C@]4(C)[C@H]3CC[C@]12C", "test system": "human, plasma", "conditions": "baseline", "endpoint": "mean daily plasma concentration", "value": "0.04 ± 0.0083 µM"}
{"SMILES": "CCCCCc1ccc(C(=O)Oc2ccc(C#N)c(F)c2)cc1", "test system": "human mother-newborn pairs, female fetuses, cord serum", "endpoint": "mean serum concentration", "value": "0.38 ng/mL"}
{"note": "Excerpt of the above:"}
{"SMILES": "O=C([O-])CN(CCN(CC(=O)[O-])Cc1cc(CCC(=O)NCCCCCC(=O)NCCCC[C@H](NC(=O)N[C@@H](CCC(=O)O)C(=O)O)C(=O)O)ccc1[O-])Cc1cc(CCC(=O)O)ccc1[O-].[68Ga+3].[OH3+]", "test": "PET/CT", "test system": "human, metastatic prostate cancer, matched lesions", "endpoint": "mean SUVmax", "value": "17.9 ± 12.1"}
{"SMILES": "C[C@@H](O)CCOC(=O)C[C@@H](C)O", "test system": "human", "conditions": "oral drink, dose not given, 180 min post dose, mean", "endpoint": "mean arterial pressure", "value": "83 mmHg"}
{"SMILES": "CC(C)n1c(/C=C/C(O)CC(O)CC(=O)O)c(-c2ccc(F)cc2)c2ccccc21 (stereo not drawn)", "test system": "human", "conditions": "oral, 20 mg, alone, control phase", "endpoint": "mean residence time", "value": "3.43 ± 1.72 h"}
{"SMILES": "Cc1ccc(O)c(-n2nc3ccccc3n2)c1", "test": "exposure assessment", "test system": "human, age 6-11 years", "conditions": "sunscreen", "endpoint": "mean daily dermal uptake", "value": "912 ng/kg body weight/day"}
